Measurements of several laboratories.
Protocols differ between the studies behind these lines. ± marks the error that the study gave.
FGFR3 isoform IIIc: FGFR3 isoform IIIc (unknown, UniProt Q61851)
B1: UGT1A9 (Homo sapiens, UniProt O60656); chain GKLLVVPMDGSHWFTMRSVVEKLILRGHEVVVVMPEVSWQLGRSLNCTVKTYSTSYTLEDLDREFKAFAHAQWKAQVRSIYSLLMGSYNDIFDLFFSNCRSLFKDKKLVEYLKESSFDAVFLDPFDNCGLIVAKYFSLPSVVFARGILCHYLEEGAQCPAPLSYVPRILLGFSDAMTFKERVRNHIMHLEEHLLCHRFFKNALEIASEILQTPVTEYDLYSHTSIWLLRTDFVLDYPKPVMPNMIFIGGINCHQGKPLPMEFEAYINASGEHGIVVFSLGSMVSEIPEKKAMAIADALGKIPQTVLWRYTGTRPSNLANNTILVKWLPQNDLLGHPMTRAFITHAGSHGVYESICNGVPMVMMPLFGDQMDNAKRMETKGAGVTLNVLEMTSEDLENALKAVINDKSYKENIMRLSSLHKDRPVEPLDLAVFWVEFVMRHKGAPHLRPAAHDLTWYQYHSLDVIGFLLAVVLTVAFITFKCCAYGYRKCLGKKGRVKKAHKSKTH
B2: mel-26 (Caenorhabditis elegans, UniProt Q94420); sequence looked up; chain MEPRIDGGVFIGGIGNSGNEMCSNGVPALGVSSQTEIKVEKVQHTWTVKNFSHCYQEYLENFVYLQRGDEQLTWSIKIYPKGNGENNKDFVFLCLNRVINNNVKAGKIGFKSQFKLRTAENKDIEMRIHPNPSHSDYVSYIKRDVLFPQIMPRDMIIVNVEIDVAVETITTTNEPIQFEPTNSEQQLIEDYQRLFSQELLCDFAINVNGKIIRAHKAVLAARSPVFNAMLTHQDTDEAKSSMMYINDMDYDVIYEMVYYIYCGRCNKDITDMATALLIAADKYRLEELKSHCEKYLVENINIENACSLLIIGDLYSAPKLRKRAVTYILARPKNVTGTPGWEDILKGHPNLITDIFSQIDRQSSTGATSSVSNLPGVPMDIPGITGNIVPPPSGL
B3: Syt1 (Mus musculus, UniProt P46096); chain MVSASRPEALAAPVTTVATLVPHNATEPASPGEGKEDAFSKLKQKFMNELHKIPLPPWALIAIAIVAVLLVVTCCFCVCKKCLFKKKNKKKGKEKGGKNAINMKDVKDLGKTMKDQALKDDDAETGLTDGEEKEEPKEEEKLGKLQYSLDYDFQNNQLLVGIIQAAELPALDMGGTSDPYVKVFLLPDKKKKFETKVHRKTLNPVFNEQFTFKVPYSELGGKTLVMAVYDFDRFSKHDIIGEFKVPMNTVDFGHVTEEWRDLQSAEKEEQEKLGDICFSLRYVPTAGKLTVVILEAKNLKKMDVGGLSDPYVKIHLMQNGKRLKKKKTTIKKNTLNPYYNESFSFEVPFEQIQKVQVVVTVLDYDKIGKNDAIGKVFVGYNSTGAELRHWSDMLANPRRPIAQWHTLQVEEEVDAMLAVKK
B4: Homer1a; chain MGEQPIFSTRAHVFQIDPNTKKNWVPTSKHAVTVSYFYDSTRNVYRIISLDGSKAIINSTITPNMTFTKTSQKFGQWADSRANTVYGLGFSSEHHLSKFAEKFQEFKEAARLAKEKSQEKMELTSTPSQESAGGDLQSPLTPESINGTDDERTPDVTQNSEPRAEPTQNALPFPHRYTFNSAIMIK
B5: FGF6 (Homo sapiens, UniProt P10767); chain SPAGTRANNTLLDSRGWGTLLSRSRAGLAGEIAGVNWESGYLVGIKRQRRLYCNVGIGFHLQVLPDGRISGTHEENPYSLLEISTVERGVVSLFGVRSALFVAMNSKGRLYATPSFQEECKFRETLLPNNYNAYESDLYQGTYIALSKYGRVKRGSKVSPIMTVTHFLPRI

| Substance | target or system | test | system | conditions | how to read | measurement | result |
| --- | --- | --- | --- | --- | --- | --- | --- |
| fabF R206A (Escherichia coli) | acpP C12-acylated 1-78, C12 acyl on 4'-phosphopantetheine (Escherichia coli, UniProt P0A6A8) | holo-AcpP formation, HPLC | – | 10 µM, added: malonyl-CoA | – | condensation rate | 0.41 min⁻¹ |
| B1 (UGT1A9) | COc1cc(-c2oc3cc(O)ccc3c(=O)c2O)ccc1O | steady-state kinetics | – | pH 7.4, 37 °C | – | Vmax/Km | 4000 µL/min/mg |
| B2 (mel-26) | mei-1/mei-2 S137A, phosphorylated by MBK-2 (Caenorhabditis elegans) | dot blot | – | 4 °C, native | – | binding | binds |
| KLLITIHDRKEFAKFEEERARAKW (ITGB3 742-765 (Homo sapiens, UniProt P05106); sequence looked up) | Myom1 IgC2 domains 4-5 C1354S (Mus musculus) | ITC | peptide | pH 6.8, 25 °C, NaCl 50 mM | – | molecule per partner | 1.3 ± 0.41 |
| B3 (Syt1) | Psen1 (Mus musculus, UniProt P49769) | FLIM FRET | young mouse primary neurons | 15 min, added: KCl 50 mM | reference: no KCl, higher = more FRET | FRET efficiency change | 1.85 fold |
| FGF1 (Homo sapiens, UniProt P05230) | FGFR3 isoform IIIc | cell proliferation, MTT | BaF3-FGFR3c | 20 nM, 48 h, added: chondroitin sulfate A 4.9 µg/mL | reference: FGF 1 with heparin, higher = more proliferation | cell proliferation | 2% |
| TIMP2 N-terminal domain S4E/V6R/V18M/I35V/N38Q/S68N/V71N/H97R | MMP2 (Homo sapiens, UniProt P08253) | fluorogenic substrate cleavage, inhibitor, enzyme inhibition assay | – | apparent | – | Ki | 224 nM |
| B4 (Homer1a) | Grm5 (Rattus norvegicus, UniProt P31424-2) | BRET | – | in spine, single-cell imaging | reference: mean BRET in shaft, higher = more interaction | BRET ratio | 101% |
| F9 mature, Gla residues (Homo sapiens, UniProt P00740) | F11 activated I183A/R184A/D185A (Homo sapiens) | fIX cleavage after Arg145, steady-state kinetics | – | KinTek fit | – | Km | 10 µM |
| F8 A2 domain (human) | F8 A1 and A3C1C2 dimer, factor VIIIa | FXa generation activity loss | – | 1.5 nM, 23 °C | higher = faster decay | decay rate | 0.14 min⁻¹ |
| MENVKKATATTTWAVPTAQ (L3MBTL3 52-70 M65A (Homo sapiens, UniProt Q96JM7-2); sequence looked up) | Rbpj 53-474 (Mus musculus, UniProt P31266) | ITC | peptide | pH 6.5, 25 °C, NaCl 150 mM | – | ΔH | -12.4 kcal/mol |
| B5 (FGF6) | FGFR3 isoform IIIc | cell proliferation, MTT | BaF3-FGFR3c | 20 nM, 48 h, added: unmodified decamer 4.9 µg/mL | reference: FGF 1 with heparin, higher = more proliferation | cell proliferation | 3% |
| MMP2 fragment R252A (Homo sapiens) | COL1A1/COL1A2 denatured, gelatin (Homo sapiens) | DQ-gelatin fluorescence | – | 10 nM, 25 °C | higher = faster hydrolysis | hydrolysis rate | 0.269 RFU/s |

Some of these lines once more:
| Substance | target or system | test | system | conditions | how to read | measurement | result |
| --- | --- | --- | --- | --- | --- | --- | --- |
| MMP2 fragment R252A (Homo sapiens) | COL1A1/COL1A2 denatured, gelatin (Homo sapiens) | DQ-gelatin fluorescence | – | 10 nM, 25 °C | higher = faster hydrolysis | hydrolysis rate | 0.269 RFU/s |
